Results from different studies.
Each numbered part is a random draw from the data of one study; scales do not carry over between parts. Substitutions count along the parent as printed.
Sequence of UniProt Q9UM73 (whole entry, looked up): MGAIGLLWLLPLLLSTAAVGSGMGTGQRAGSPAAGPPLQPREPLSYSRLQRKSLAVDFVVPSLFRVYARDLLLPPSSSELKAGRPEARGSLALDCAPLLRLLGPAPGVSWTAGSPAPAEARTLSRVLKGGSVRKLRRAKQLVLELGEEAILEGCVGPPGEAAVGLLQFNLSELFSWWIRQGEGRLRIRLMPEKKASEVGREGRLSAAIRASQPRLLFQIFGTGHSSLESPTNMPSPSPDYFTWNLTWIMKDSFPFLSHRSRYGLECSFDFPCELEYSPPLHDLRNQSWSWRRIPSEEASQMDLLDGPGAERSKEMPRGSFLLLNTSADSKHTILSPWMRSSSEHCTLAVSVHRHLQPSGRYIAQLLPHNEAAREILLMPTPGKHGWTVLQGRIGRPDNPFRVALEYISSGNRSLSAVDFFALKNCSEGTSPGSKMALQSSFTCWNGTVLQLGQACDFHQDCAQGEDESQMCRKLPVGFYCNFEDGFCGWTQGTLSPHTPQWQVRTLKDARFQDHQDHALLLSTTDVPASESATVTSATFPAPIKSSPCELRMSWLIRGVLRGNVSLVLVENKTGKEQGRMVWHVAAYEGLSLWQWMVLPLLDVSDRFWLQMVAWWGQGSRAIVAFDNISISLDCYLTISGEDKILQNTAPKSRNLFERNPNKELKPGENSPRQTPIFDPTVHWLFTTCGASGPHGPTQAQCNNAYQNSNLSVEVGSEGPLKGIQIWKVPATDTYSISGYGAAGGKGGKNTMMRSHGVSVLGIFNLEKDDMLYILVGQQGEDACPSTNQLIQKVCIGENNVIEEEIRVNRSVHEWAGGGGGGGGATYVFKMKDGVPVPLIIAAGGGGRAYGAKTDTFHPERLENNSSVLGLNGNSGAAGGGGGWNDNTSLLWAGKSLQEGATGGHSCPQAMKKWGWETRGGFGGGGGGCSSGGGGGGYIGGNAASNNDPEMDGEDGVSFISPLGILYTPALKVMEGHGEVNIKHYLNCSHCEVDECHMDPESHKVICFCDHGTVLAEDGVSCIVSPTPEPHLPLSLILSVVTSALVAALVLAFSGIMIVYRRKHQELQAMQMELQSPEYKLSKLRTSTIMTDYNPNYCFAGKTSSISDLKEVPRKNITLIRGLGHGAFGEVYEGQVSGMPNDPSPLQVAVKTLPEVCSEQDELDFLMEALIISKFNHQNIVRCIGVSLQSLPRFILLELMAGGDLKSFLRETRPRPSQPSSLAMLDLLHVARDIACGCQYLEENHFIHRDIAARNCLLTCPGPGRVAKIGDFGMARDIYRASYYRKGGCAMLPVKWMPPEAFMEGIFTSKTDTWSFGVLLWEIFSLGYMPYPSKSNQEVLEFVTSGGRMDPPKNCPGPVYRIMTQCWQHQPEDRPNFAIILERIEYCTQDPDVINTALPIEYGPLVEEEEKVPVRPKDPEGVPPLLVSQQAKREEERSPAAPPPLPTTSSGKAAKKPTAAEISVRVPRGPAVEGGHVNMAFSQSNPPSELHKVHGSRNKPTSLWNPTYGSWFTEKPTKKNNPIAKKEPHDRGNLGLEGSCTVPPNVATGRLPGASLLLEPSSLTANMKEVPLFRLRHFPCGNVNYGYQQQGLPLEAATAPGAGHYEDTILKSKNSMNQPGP
Sequence of UniProt Q6P2M8 (whole entry, looked up): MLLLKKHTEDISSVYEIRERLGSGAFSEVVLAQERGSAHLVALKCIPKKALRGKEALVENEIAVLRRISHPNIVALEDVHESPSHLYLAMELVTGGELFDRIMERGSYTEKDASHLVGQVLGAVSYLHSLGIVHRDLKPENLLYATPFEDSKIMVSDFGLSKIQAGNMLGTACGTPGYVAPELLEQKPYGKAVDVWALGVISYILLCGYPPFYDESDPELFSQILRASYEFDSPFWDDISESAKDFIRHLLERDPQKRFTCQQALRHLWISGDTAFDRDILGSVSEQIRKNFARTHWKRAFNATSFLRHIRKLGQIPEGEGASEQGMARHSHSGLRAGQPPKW
Sequence of UniProt Q99755 (whole entry, looked up): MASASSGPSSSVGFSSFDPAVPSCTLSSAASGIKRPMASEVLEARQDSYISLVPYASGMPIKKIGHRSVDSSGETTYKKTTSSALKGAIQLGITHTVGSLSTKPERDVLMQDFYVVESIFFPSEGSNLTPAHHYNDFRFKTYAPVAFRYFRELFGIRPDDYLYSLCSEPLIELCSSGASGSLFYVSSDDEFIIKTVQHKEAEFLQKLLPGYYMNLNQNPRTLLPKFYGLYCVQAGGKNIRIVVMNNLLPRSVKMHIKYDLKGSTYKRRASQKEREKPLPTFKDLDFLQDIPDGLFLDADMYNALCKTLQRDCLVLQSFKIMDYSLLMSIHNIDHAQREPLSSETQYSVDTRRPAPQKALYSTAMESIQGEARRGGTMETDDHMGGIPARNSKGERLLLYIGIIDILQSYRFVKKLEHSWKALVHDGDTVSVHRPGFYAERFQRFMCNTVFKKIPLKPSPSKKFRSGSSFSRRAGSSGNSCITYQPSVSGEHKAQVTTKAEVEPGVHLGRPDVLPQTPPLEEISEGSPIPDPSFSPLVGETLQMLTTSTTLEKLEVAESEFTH
Sequence of UniProt P15056 (whole entry, looked up): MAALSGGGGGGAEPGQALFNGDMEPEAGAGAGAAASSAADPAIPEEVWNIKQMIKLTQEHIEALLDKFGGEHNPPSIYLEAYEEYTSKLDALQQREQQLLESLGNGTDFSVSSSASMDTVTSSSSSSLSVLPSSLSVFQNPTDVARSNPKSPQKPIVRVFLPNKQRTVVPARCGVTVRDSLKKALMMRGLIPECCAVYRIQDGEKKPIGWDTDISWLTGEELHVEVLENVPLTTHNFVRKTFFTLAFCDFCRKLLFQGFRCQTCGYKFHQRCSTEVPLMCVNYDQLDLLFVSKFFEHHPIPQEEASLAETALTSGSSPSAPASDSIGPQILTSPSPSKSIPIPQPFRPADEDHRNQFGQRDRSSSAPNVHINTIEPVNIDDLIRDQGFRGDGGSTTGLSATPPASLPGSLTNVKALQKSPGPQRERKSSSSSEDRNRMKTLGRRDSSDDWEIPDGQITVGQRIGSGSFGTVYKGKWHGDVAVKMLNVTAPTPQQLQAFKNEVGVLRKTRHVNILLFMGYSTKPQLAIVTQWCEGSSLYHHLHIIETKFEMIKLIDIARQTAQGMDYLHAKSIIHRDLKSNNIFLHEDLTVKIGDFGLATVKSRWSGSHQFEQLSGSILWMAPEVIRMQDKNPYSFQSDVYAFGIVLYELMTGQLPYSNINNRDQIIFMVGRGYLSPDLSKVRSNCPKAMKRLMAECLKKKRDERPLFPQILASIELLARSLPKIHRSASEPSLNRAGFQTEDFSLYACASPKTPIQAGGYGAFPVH
Sequence of UniProt Q9UBF8 (whole entry, looked up): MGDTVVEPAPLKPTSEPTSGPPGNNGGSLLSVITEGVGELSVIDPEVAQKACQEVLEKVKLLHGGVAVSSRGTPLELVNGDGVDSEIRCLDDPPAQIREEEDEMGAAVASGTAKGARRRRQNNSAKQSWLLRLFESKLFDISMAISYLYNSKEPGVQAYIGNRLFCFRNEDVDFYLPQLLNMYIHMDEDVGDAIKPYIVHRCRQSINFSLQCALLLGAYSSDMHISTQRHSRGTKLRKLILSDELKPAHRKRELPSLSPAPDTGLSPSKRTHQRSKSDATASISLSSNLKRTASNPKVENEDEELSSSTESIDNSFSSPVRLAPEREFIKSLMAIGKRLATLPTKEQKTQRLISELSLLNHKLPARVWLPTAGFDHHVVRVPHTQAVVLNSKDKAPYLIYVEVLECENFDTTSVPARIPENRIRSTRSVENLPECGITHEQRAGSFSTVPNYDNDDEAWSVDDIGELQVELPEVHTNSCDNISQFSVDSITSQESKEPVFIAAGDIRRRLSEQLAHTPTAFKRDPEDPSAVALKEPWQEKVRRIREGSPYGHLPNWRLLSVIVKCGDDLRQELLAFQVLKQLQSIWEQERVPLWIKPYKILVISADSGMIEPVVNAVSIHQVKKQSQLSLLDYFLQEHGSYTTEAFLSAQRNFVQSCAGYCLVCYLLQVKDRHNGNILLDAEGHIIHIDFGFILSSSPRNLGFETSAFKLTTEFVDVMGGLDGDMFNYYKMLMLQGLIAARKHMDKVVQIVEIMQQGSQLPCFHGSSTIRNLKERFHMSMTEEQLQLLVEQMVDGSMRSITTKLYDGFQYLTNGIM

Sample 1
Target: Mitogen-activated protein kinase kinase kinase 10 (MAP3K10, Homo sapiens, UniProt Q02779)
Sequence of UniProt Q02779 (whole entry, looked up): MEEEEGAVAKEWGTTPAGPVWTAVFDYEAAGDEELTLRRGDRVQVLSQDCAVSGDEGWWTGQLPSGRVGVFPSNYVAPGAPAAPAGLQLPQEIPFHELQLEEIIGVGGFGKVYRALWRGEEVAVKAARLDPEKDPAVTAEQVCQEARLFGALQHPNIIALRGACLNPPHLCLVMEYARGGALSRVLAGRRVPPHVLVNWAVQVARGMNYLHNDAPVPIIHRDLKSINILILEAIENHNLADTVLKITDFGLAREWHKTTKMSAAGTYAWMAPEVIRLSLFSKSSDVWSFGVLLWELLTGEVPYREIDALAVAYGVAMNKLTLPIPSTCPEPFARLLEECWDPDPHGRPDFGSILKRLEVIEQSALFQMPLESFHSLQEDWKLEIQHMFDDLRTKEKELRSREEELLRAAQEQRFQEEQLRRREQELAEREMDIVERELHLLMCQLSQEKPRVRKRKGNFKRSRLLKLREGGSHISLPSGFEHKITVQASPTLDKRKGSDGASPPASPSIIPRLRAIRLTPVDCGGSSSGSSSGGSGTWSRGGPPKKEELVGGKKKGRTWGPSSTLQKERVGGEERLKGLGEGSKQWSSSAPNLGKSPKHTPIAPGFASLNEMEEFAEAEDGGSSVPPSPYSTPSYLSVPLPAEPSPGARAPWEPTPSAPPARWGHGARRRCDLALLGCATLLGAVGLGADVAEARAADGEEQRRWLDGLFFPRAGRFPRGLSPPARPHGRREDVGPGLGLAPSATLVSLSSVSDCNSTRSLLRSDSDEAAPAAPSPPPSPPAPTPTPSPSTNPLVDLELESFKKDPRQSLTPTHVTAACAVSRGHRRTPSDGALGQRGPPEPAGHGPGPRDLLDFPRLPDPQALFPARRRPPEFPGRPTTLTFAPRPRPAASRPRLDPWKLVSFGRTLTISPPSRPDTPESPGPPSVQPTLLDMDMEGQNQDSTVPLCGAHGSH
Read-out: enzyme activity
Action: inhibitor
Concentration: 0.5 µM
Reference: control
| SMILES | remaining activity [%] |
| --- | --- |
| OCC(O)CCON=C1C(c2c(O)[nH]c3ccccc23)=Nc2ccccc21 (centres unmarked) | 86.9 |
| COc1cc2ncnc(Nc3ccc(F)c(Cl)c3)c2cc1OCCCN1CCOCC1 | 109 |
| Cn1c2ccccc2c2c3c(c4c5ccccc5n(CCC#N)c4c21)CNC3=O | 25.8 |
| O=C1NC(=O)C(c2cn(CCCO)c3ncccc23)=C1c1cnccn1 | 91.3 |
| Cc1ccc(Nc2nccc(N(C)c3ccc4c(C)n(C)nc4c3)n2)cc1S(N)(=O)=O | 28.5 |
| Nc1ncnc2n[nH]c(Nc3ccc(F)cc3)c12 | 85.9 |
| O=C(CCCc1ccc(-c2ccccc2F)cc1)Nc1ccc(O)cc1 | 88.8 |
| CCOC(=O)c1c(C)[nH]c(/C=C2\C(=O)Nc3ccccc32)c1C | 98.5 |
| CN(C)c1ccc(C=C2C(=O)Nc3ccccc32)cc1 | 96.6 |
| O=C(O)c1ccc2c3c1cccc3c(=O)n1c3ccccc3nc21 | 99.3 |
| COc1cc2nccc(Oc3ccc(NC(=S)NC(=O)c4ccccc4C)cc3)c2cc1OC | 91 |
| CO[C@H]1C[C@@H]2CC[C@@H](C)[C@@](O)(O2)C(=O)C(=O)N2CCCC[C@H]2C(=O)O[C@H]([C@H](C)C[C@@H]2CC[C@@H](O)[C@H](OC)C2)CC(=O)[C@H](C)/C=C(\C)[C@@H](O)[C@@H](OC)C(=O)[C@H](C)C[C@H](C)/C=C/C=C/C=C/1C | 109 |
| Nc1[nH]nc2nc3ccccc3nc12 | 93.1 |
| Cc1ccc(NC(=O)c2ccc(CN3CCN(C)CC3)cc2)cc1Nc1nc(-c2cccnc2)cs1 | 102 |

Sample 2
Structure (SMILES): O=C1NC(c2ccccn2)Sc2ccccc21 (centres unmarked)
Read-out: cell-free assay
Method: competition with immobilised ligand
Concentration: 1 µM
| target | remaining binding |
| --- | --- |
| PNCK (Homo sapiens, UniProt Q6P2M8) | 71% |
| PI4KB (Homo sapiens, UniProt Q9UBF8) | 79% |
| LRRK2 (Homo sapiens, UniProt Q5S007, G2019S) | 81% |
| BRAF (Homo sapiens, UniProt P15056) | 90% |
| PIP5K1A (Homo sapiens, UniProt Q99755) | 100% |
| ALK (Homo sapiens, UniProt Q9UM73) | 89% |

Sample 3
Target: CCNE1, cyclin fold, Cln2 fusion (human)
Method: yeast growth competition, sequencing
Medium: yeast
Notes: strong parent motif
Reference: not given
Direction: higher = stronger binding
Starting sequence: PKMYT1 docking peptide (human); SFEPRNLLSLFED
| Substitution | normalised enrichment score |
| --- | --- |
| SFEPRNLLSAFED [L10A] | 2.52 |
| SFEPRNLLSLMED [F11M] | 0.484 |
| SFEPRNTLSLFED [L7T] | 0.477 |
| SFEPRNLRSLFED [L8R] | 0.951 |
| EFEPRNLLSLFED [S1E] | 1.29 |
| SFEPRNRLSLFED [L7R] | 0.114 |
| SFDPRNLLSLFED [E3D] | 0.772 |
| SFEPRNLLSLFYD [E12Y] | 1.88 |

Mixed results
| Compound | test system | setting | measurement | result |
| --- | --- | --- | --- | --- |
| CC(C)n1cnc(-c2ccc(F)cc2)c1-c1ncc(C(=O)Nc2ccc(N3CCN(C)CC3)cc2)[nH]1 | IPF patients | 60 mg once daily, adverse event | cardiac failure incidence | 0% |

A few entries again (sample 2):
| target | remaining binding |
| --- | --- |
| PIP5K1A (Homo sapiens, UniProt Q99755) | 100% |
| BRAF (Homo sapiens, UniProt P15056) | 90% |
| PNCK (Homo sapiens, UniProt Q6P2M8) | 71% |
